Measurements of several laboratories.
A part holds a random share of what one study measured. Changes are numbered by the printed parent chain.

Block 1 — target: CCND2, cyclin fold, Cln2 fusion (human); technique: yeast growth competition, sequencing; sample: yeast; setting: weak parent motif; relative to: not given; reading: higher = stronger binding
Starting sequence: ORC1 docking peptide (human); PRARKRLELGNLG
| Variant | normalised enrichment score |
| --- | --- |
| L7Q | 0.0189 |
| N11S | 0.0348 |
| G13P | -0.000133 |
| R6Y | 0.00594 |
| L12H | 0.319 |
| L7G | -0.0747 |
| P1E | 0.328 |
| R4C | -0.197 |
| A3M | 0.763 |
| R6V | 0.0901 |
| R6A | -0.13 |
| L7E | 0.38 |
| E8D | 0.438 |
| P1V | -0.0275 |
| P1T | 0.0665 |

Block 2 — technique: DHFR PCA, deep sequencing; sample: yeast; with: (+)-ABA 17 µM; relative to: wild-type fitted maximum; reading: higher = stronger binding
Target: ABI1, truncated, D143A, DHFR fusion (Arabidopsis thaliana)
Setting: methotrexate growth selection, single substitutions
Starting sequence: PYL1, truncated, DHFR fusion (Arabidopsis thaliana); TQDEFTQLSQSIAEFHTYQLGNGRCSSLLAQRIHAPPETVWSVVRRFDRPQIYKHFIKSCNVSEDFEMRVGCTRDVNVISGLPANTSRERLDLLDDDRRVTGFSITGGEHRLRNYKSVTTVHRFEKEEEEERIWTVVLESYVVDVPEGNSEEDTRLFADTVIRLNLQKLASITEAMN; partner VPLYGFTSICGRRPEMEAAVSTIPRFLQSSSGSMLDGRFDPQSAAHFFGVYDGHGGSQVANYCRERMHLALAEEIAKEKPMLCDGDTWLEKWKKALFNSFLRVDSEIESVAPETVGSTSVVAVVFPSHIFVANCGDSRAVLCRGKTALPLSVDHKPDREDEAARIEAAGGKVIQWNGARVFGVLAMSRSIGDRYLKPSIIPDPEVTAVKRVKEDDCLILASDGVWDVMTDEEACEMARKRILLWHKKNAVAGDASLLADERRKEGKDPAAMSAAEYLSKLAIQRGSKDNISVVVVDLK
| Variant | relative binding score |
| --- | --- |
| R98I | 64.5% |
| E38L | 30% |
| D97Q | 92% |
| R88A | 66.1% |
| Y18R | 57.9% |
| T101Q | -12.5% |
| Q51W | 47.8% |
| T160M | 73.8% |
| I133C | 97.4% |
| D75N | 83.8% |
| T135I | -6.05% |
| S150L | 29.4% |
| I12S | 6.39% |
| E151D | 78% |
| E67L | 65% |

Block 3 — technique: RNA Bind-n-Seq; form: RNA; sample: in vitro; tested at: 100 nM; relative to: input RNA pool; reading: higher = stronger binding
Target: RING finger protein unkempt homolog, zinc fingers 1-6, SBP tag (UNK, Homo sapiens, UniProt Q9C0B0, residues 30-357)
UniProt Q9C0B0, sequence (30-357, looked up): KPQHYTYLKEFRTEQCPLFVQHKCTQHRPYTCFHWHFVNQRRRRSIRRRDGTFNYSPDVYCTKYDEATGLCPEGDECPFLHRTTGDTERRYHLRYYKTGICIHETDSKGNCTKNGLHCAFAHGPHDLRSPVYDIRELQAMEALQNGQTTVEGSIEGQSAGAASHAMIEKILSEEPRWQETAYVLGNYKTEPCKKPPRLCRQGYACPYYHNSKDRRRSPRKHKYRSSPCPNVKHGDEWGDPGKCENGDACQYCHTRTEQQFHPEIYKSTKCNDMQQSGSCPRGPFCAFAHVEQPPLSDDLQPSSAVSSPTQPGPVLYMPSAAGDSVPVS
Setting: RNA with constant flanks, vertebrate orthologous sites, ends assumed
| Sequence | bound/input enrichment [ratio] |
| --- | --- |
| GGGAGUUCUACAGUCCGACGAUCCAGGGUAUACCUGUGGGGCACUGCUGGCCGCUUAUUGUUGUUUAAUUUGUGACCUUGACAUCAUAGAUAGGCUUUUUUUUUUAAUUUAAAGAUAGUAAGACCUAAUUCACUAAAAUUUAUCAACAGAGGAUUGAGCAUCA | 0.858 |
| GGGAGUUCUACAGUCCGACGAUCCUGCCUUUACCCUGCUGUAUAAUAAACAACCAGACACUUGGCAACUGUUGAUACAGAUGGUAGUCCCGAAUCACUUUUUAUAUGUUUUAACAUUUGAAAUUCAAGUGUACCUGCCAUAACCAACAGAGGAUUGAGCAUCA | 0.462 |
| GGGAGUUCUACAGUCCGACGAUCAUUUUUUAAAGUUUUUUUAAUUUAAUUUUUCCUUUUGGGGGUAAAGUUUGCUCUACCAAAUAGUGAUUGUAACAAAUUGAUCUGUUUUGGAUGUUGCUAUAGUGACAUGCAGUUAUAUAUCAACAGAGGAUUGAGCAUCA | 0.72 |
| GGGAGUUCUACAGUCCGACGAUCGUAUGUAGAGAAAAAUUUUCAUUGACCCCCCCCCAUUGUGAAAUUCCCUAGCAGUUUAUUUAGAAUCUUAAAUUUUCUAAUUAAAGCUCAUUGUAUUAGUCAUUUUUAGCAUAAUUAAAACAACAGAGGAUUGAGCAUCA | 4.56 |
| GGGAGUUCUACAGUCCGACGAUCUCUCUCACUUAGCUGUGUCCAAAAUUGCUAUGAGGGUUGGAAACAUUGAUUAGUUUCAUGUAGAACUACACUGGCAGGUGCUCAAUUACCAUCAUAGCAAGGUCAAAUACCAUCACAGUACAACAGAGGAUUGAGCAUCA | 1.44 |
| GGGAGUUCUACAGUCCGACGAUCCCGCUGAUUCGCUCAUUGGGAGAGCAGCACAUAUAGCUGUUCUUGAUUCAGAAAUAUUUUUAGAGAAAUUCUUUCUGGUUGCUGCCCUAAAAUAUUUCCAGUAGAAUAAAAGCAUUGUUACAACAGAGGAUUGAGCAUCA | 0.59 |
| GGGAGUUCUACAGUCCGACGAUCCCGAAGGGCCAGAUCCCCUCCCCCCUGCUCCUGCUUCUACCAGCUGGAAGCACAGAAAACUAGAAGUUCACUUAUUUUGUUUUUAAACGAUAUACGUUGAUUUCUUGUAACAUCCAAUAGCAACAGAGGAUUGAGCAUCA | 0.368 |

Block 4 — technique: protein binding microarray; form: double-stranded DNA, one strand shown; sample: in vitro; tested at: not given; relative to: not given; reading: higher = stronger binding
Target: Histone acetyltransferase KAT6A, winged helix 1, GST fusion (KAT6A, Homo sapiens, UniProt Q92794, residues 1-85)
Setting: 8-mer, flanks averaged, mean of 2 arrays, mostly near background
Residues (chain): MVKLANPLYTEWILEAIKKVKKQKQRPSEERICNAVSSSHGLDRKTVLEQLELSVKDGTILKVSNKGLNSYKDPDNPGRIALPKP
| Sequence | E-score |
| --- | --- |
| TTCGCGAA | 0.0659 |
| AAACTGAC | -0.0204 |
| AAGCAAAT | -0.312 |
| AACTTACC | -0.0249 |
| GTCCATGA | -0.0564 |
| GTCGGAAA | 0.166 |
| AACGGTAA | 0.166 |
| GTAGCGTA | 0.215 |
| ACCCTCCA | -0.323 |
| GTGCTAGA | -0.127 |
| GTCCGCGA | 0.241 |
| CTGTACAA | -0.156 |
| CTCCAGGA | -0.119 |
| TCGCGCGA | 0.401 |
| AAAATTAG | -0.0189 |
| ACGCTACT | 0.151 |
| CGGGATAG | 0.153 |
| CAAACCAC | -0.0153 |
| GCGGCTAC | 0.396 |
| GAAGTTAC | -0.0676 |
| CACAAGTG | -0.157 |

Block 5 — technique: RNA Bind-n-Seq; form: RNA; sample: in vitro; tested at: 365 nM; relative to: no-protein control; reading: higher = stronger binding
Target: RNA binding protein fox-1 homolog 2, RRM domain, GST-SBP tag (RBFOX2, Homo sapiens, UniProt O43251-10, residues 100-194)
Setting: natural RNA segment, single round, ends assumed
Construct (chain): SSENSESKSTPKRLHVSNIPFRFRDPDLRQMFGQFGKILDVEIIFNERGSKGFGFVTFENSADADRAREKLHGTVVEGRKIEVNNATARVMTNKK
| Sequence | RBNS enrichment (R) |
| --- | --- |
| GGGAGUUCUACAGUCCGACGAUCGCUGCCUGUUCCCACGUGUCACCAGCACGCUGCACUCCAGAUGAAAUCCUCCUAGGACAGGAGUUUGUUUCCUGAGUGUGGAGUGAGGCUGUCAGUGGAUCCGUGCUUUGUGGAAUUCUCGGGUGCCAA | 0.654 |
| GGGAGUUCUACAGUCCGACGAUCUAUUUUCUAAACAGAUCUUUAAUGGACUAUUUAAACCGAAUUUAAGGAAUUCACACACGACAGUUGACAGGUCUUCACGCAGGCUGGUUGGUAACGUGCUGCCAGCACAGUGGAAUUCUCGGGUGCCAA | 0.299 |
| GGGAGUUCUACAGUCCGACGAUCUAGGGAGAGGCGAGGUUACAGUGUUUAUAUUUUGGAACCUUCCUGAAGGUGUGAAAUUGUAAAUAUUUUUAUCUAAGUAAAUGUUAAGCAGUUGUUUUAAAAAUACUUAAUGGAAUUCUCGGGUGCCAA | 0.438 |
| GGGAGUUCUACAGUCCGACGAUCUGCUGUAAUCUAGUUGCUCUGGUAUAGAAGAGAACCCCAUGGGGCUGUGGGAGAGACAAUUCAGUGGCAGCCCACUGGCUUCUCUACCCAUUCCACAGGAACCCUAUUCCUGGAAUUCUCGGGUGCCAA | 0.302 |
| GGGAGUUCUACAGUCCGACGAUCUUUUGACUUCAGGCCUGAGAAAAACUUCAGGUUUCGAAACAUGACAUCUCUUCCUUUUCCAGAUCCCAUGCUUUGAAAAAUAUUUAUAGACAGUUCCAGGUCUCAGCUUCUGGAAUUCUCGGGUGCCAA | 0.415 |
| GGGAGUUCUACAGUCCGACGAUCAACCAUAAGACUCUAGUCAAAAGCACUCGUGCAGAUAUGCUGCAUAUGAGUAAGAAAUUGCAAUUUUGUAAACAUUCCUCGACUUGGUGGGGAGGAAUAAUUUUAUAAUUUGGAAUUCUCGGGUGCCAA | 0.851 |
| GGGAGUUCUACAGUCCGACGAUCGAUCUGGGCCUUUGAACAACUGGGGGGCGUUUUCUCCCCCCCAUUGGGACACCAGUCUUCGGUGUGUGGAAUGUGGUAUUUUCCCGCGUGGAGGUGUGCUUUCUCACAACUGGAAUUCUCGGGUGCCAA | 0.268 |
| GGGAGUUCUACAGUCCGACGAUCAGGCCCUGGGCAAAGAAGGGUCUUUCGCAAAGCGAUGUCAGAGGGCGGUUUUGAGCUUUCUAUAAGCUAUAGCUUUGUUUAUUUCACCCGUUCACUUACUGUAUAAUUUAUGGAAUUCUCGGGUGCCAA | 0.469 |
| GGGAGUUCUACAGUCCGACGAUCCCUAACAGUACAGAGCCAUGACUCAAUAAAUACAUGUUAAAUGGAUGAAUGAAUUCCUCUGAAACUCAUUUGAGCUUAUUUAGUCAAAUUCUUUCACUAUUCAAAGUGUGUGGAAUUCUCGGGUGCCAA | 0.43 |
| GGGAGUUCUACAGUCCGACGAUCGAUCUAUUUAUAAUGAAUUCACAAUUUAUGCCUAUAAAUUUCAGAUGAUUUAAAAUUUUAAACCUGUUACAUUGAAAAACAUUGAAGUUCGUCUUGAAGAAAGCAUUAAGUGGAAUUCUCGGGUGCCAA | 2.1 |
| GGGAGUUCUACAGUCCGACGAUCUGCUCAGGCGAAUUUCUCAUUUCAAGCCACUGGGGAAACUGAGGCAAAACCAUACUUAGUCAUCACCAACAAGCUGGACUGCUUAGCUGGGCUGUUUUAUCUUCCCUGAGUGGAAUUCUCGGGUGCCAA | 0.353 |
| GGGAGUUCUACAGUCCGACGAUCCCAGAGGCUCAAAGCCAGAACCUCCUGCAUGUUGGACAAGCACUCUACCAACUGAGCUACAUCCCCAGCCUUCAGUCCCCACCCCCGAGUCCAGAGACAGGUCUCAUGUGUGGAAUUCUCGGGUGCCAA | 0.443 |

For quick reference, copied from above (block 4):
| Sequence | E-score |
| --- | --- |
| GTCGGAAA | 0.166 |
| AACGGTAA | 0.166 |
| GTAGCGTA | 0.215 |
| ACCCTCCA | -0.323 |
| GTGCTAGA | -0.127 |
| GTCCGCGA | 0.241 |
| CTGTACAA | -0.156 |
| CTCCAGGA | -0.119 |
